Experimental data pooled from the literature.
Parts stem from different laboratories: compare values within a part only.

Series 1
Target: Sal-like protein 4, full length isoform B (SALL4, Homo sapiens, UniProt Q9UJQ4-2, residues 1-616)
Technique: universal PBM
Molecule type: double-stranded DNA, one strand shown
Sample: in vitro
Tested at: not given
Setting: 8-mer, flanks averaged, mean of replicates
Reading: higher = stronger binding
Residues (chain): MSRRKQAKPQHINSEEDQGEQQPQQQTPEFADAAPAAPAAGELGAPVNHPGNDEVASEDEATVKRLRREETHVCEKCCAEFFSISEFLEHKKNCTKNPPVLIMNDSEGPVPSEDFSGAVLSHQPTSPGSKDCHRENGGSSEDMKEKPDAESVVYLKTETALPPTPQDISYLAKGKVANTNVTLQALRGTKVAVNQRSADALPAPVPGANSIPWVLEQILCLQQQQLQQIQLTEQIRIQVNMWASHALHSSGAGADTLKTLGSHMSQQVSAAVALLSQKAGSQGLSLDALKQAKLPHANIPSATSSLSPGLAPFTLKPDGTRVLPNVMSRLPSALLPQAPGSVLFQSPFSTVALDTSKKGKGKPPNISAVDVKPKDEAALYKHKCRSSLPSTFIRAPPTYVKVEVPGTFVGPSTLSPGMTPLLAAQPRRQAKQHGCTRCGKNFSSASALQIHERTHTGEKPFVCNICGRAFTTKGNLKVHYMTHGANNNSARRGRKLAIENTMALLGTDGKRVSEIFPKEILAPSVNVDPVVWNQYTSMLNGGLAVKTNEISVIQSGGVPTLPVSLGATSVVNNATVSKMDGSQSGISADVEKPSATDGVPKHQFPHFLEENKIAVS
Strand	E-score
AAACAGCG	0.0555
GCGGAATA	0.0921
CTCGTAAG	0.0513
AACATGAA	0.227
CCCCTAAC	-0.112
CCGTCTGC	-0.256
ACTGACGG	-0.244
CGGTCAGA	-0.147
CTAGCCAG	-0.126
CGCGTGGA	-0.209
GCCGAAAC	-0.21
CCCCGTAA	0.0118
AAGAGCAT	0.127
CGCTGACA	-0.234
CGAATGAA	0.122
GCTTATTA	0.324
AGACGCAG	-0.0887
CTCTCAAA	0.0913
GTTGCTTA	0.0673

Series 2
Target: Protein C-ets-1 (ETS1, Homo sapiens, UniProt P14921, residues 1-441, K379A, full length assumed)
Technique: protein-binding microarray
Molecule type: double-stranded DNA, one strand shown
Sample: in vitro
Tested at: not given
Setting: k-mer, scored over probes, only values ≥0.25
Reading: higher = stronger binding
Target sequence (chain): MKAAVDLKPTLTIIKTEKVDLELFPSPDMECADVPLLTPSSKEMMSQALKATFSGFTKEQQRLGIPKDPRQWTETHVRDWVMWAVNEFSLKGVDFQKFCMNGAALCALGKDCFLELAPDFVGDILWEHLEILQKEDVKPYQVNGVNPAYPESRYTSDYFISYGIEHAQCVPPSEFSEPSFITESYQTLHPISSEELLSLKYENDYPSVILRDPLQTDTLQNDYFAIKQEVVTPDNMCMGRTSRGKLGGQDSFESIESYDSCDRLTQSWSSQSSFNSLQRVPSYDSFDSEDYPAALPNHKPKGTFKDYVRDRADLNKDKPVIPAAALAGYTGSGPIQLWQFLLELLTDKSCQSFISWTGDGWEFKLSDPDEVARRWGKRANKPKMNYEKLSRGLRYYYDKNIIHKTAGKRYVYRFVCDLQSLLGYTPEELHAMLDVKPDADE
Strand	E-score
GAGAACCA	0.252
ACTATCCG	0.295
ATGGTATC	0.258
TCACCGGA	0.396
ACAAGACA	0.271
ACAGACAA	0.257
CCACCGGC	0.353
AGCCCCGG	0.353
AAAACCGG	0.319
ACAGACCG	0.294
GTTCGAAC	0.254
GCCGGTAC	0.377
AGGCGGAA	0.262
GTATATGA	0.271
ACGTCATG	0.252
ATCCGACA	0.312

Series 3
Target: RNA binding protein fox-1 homolog 2, RRM domain, GST-SBP tag (RBFOX2, Homo sapiens, UniProt O43251-10, residues 100-194)
Technique: RNA Bind-n-Seq
Molecule type: RNA
Sample: in vitro
Tested at: 365 nM
Setting: natural RNA segment, single round, ends assumed
Relative to: no-protein control
Reading: higher = stronger binding
All sequences stand within: GGGAGUUCUACAGUCCGACGAUC … UGGAAUUCUCGGGUGCCAA
Target sequence (chain): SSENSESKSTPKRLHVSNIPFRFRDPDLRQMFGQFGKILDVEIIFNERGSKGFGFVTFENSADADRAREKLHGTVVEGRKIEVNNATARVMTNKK
Strand	RBNS enrichment (R)
GGUAAAAUACUGCAAAGAACUAACAACAACAGGUUAGUGUUGGCUCCUGAACAGUAAACCGCUCUGACUGAGCUUCAGUCACCCUCUUCUGUACGAGCCUCAUGCAAUUA	0.243
CAUAAGAAUGCUGUUUGCUGCAGUUCUGUGUCCUGUGCUUGGAUGCUUUUUUAUAAGAGUUGUCAUUGUUGGAAAUUCUUAAAUAAAACUGAUUUAAAUAAUAUGUGUCU	15.4
AAAUCCAAUUCUAACCUAAGAACUGGGAUUCUUCUGUCAUCUUGUAAACCGUAUAUUGAAAAAAACAGAAUGUCACUAAAUGCAUAUUAAGUCAAGUAUUGGAAAGUAUA	1.01
GUCAGGACAUGUCCACCACUGGUCAGAAACUCUUCUUCCCGUGGAACCAAAUGUCCCAGACUCUCUUCAUGCCUCAGCCUUGCAGUGUAGCAUAGGUCUCUCUCUGCACA	0.392
ACUCAGGCAAUAAGCGAUUUUAGCUUUAUUUAAAGUCUUCUGUCCAGCUUUAAGCACUUUGUAAGACAUGGCUGAAAGUAGCUUUUCUAUCAGAAUUGCAGAUAGUCAUG	0.288
GAGAUGUGUAAUUCUUUUAUGGAGUUUUUAAAAAGAAUUUUCAUAUUGUUUUUCUAACAUGGCUUCAUUAAACGUUUAAGUAUUUUAAAAAUAUGUAAUAUUUGGACCAG	0.562
CUCCUGGCCUCCCAGGUCACGCCAAACAGGCUAGAUCUUCCUGAGGACAGCCACCCAGGUCUGCAGCCCCACAAGGCCCUGCUCCUGAUCAGCCUCAGCCAGAGGACGAG	0.206
GCUUAUGUUUGAUCAUCGGCCAAGGUCCUGGCGAGAACUGCCUCUGCGGCUAGCUGAUUUUGGGGUACUUCAUAGGAACGAGCUGUCUGGAGCACUCACAGGACUCACCC	0.22
CACCUCUUCUCUUCCUGCCCGGCUCUGCUUCUGUGUCUUGAUGUCAGCUCACACAAUUCCAAAGGAAACUGGCCUUGCUGAGGGUGCUGCCUGCCUGCGAGGCACCUGCC	2.08
AUUUUACAGUACAUGUUAAUAAUUUAUGUUUAAUAUUUGUAUUUGUGUUCUCUUUUGUUAUUUUACUUAGGGUAUAUGGAUAUUUUGCAAUAAUUUUAAUGAUUCUUAAG	0.565
CUAUUCCACCACGGCUGUCGUCACCAAUCCCAAGGAAUGGGGACUUCUCCUCCAGUGGACCUGAAGGACGAGGGAUGGGAUUUCAUGUAACCAAGAGUAUUCCAUUUUUA	0.155
GAACAUGUGAAUUGCUGGUUAGUAGGUGGUAUGCCUUGGGCACAUGUCACAUCUAAAUGCUGCUGGUCGAUACUUUAUCAUUCCACAAACAUUUAUUCACUUCCAAAUAU	0.505

Series 4
Target: Interferon regulatory factor 7, full length, phosphomimetic (IRF7, Homo sapiens, UniProt Q92985, residues 1-503, S101K/S471D/S472D/S475D/S476D/S477D/S483D/S484D/S487D)
Technique: protein-binding microarray
Molecule type: double-stranded DNA, one strand shown
Sample: in vitro
Tested at: 250 nM
Setting: 60-bp whole probe
With: salmon DNA 0.4 mg/ml
Relative to: random background probes
Reading: higher = stronger binding
All sequences stand within: GCCTAGCAC … GTCTTGATTCGCTTGACGCTGCTG
Residues (chain): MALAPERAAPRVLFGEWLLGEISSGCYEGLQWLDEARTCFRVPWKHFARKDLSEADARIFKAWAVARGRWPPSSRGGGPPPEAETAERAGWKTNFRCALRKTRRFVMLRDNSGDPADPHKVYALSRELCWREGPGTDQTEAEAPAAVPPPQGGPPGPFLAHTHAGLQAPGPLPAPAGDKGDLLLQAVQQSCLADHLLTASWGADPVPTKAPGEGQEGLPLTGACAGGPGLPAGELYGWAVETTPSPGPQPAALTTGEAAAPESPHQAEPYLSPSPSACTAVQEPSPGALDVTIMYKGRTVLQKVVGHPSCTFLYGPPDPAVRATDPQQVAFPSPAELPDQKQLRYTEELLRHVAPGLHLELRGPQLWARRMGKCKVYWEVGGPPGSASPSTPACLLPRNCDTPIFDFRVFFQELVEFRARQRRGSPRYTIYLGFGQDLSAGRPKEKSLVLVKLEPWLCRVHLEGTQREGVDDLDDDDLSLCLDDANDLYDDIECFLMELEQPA
Strand	log fluorescence [z-score]
GACGATACCGGGACTGGAGACGTGCTA	-0.242
TGTCCTTTCACTTTAACTTAGTGCTAG	1.8
TTAGACCTCAGTATCGATTAGTGCTAG	1.07
TTAGGGATCGGTATCGGTTAGTGCTAG	1.94
TCAAGTTTATACCTTAGACTGTGCTAG	0.167
TTAGGACTGCTACTGCATTAGTGCTAG	-0.458
TTAGGTTTCCTATTCCTTTAGTGCTAG	3.27
TTAGAACTGAGACTGGATTGGTGCTAG	-0.277
TTAGATATCGGGATTGGATTAGTGCTA	0.11
GACGGACTGGACTTTCAGGACGTGCTA	-0.7
TTAGGTATCTACTATCGGTTAGTGCTA	0.423
TTAGGTCTTCTACTGCTTTAGTGCTAG	-0.124
TGAGATTTCAGTTCCGATTAGTGCTAG	1.32
GACGGTATCAACTATCGGGACGTGCTA	-0.452
TCAATTCTCAGCCCTGCGACTGTGCTA	0.0608
GACGGTATCTTTTTCCTGACGTGCTAG	0.637
TCACTTTCCTTTATGTAACTGTGCTAG	2.31
TTCGATATCAGTTTCGATTAGTGCTAG	8.4
GACGGTATCGGACTGGTGACGTGCTAG	-0.279
TTAGGTTTCCTTTCCGTTTAGTGCTAG	4.66
TTAGATTTCGGCTATCGATTAGTGCTA	0.44
GACGGACTGGGGATTGGGGACGTGCTA	-0.371
GACGATTTCGGGACTGGACACGTGCTA	-0.0678
AACCATTTTGTTTTTCATTAGTGCTAG	0.962
TTAGGTTTCGGAATCGGTTAGTGCTAG	10.6

Series 5
Target: Fragile X messenger ribonucleoprotein 1, C-terminal low-complexity region (Fmr1, Mus musculus, UniProt P35922)
Technique: RNA Bind-n-Seq
Molecule type: RNA
Sample: in vitro
Tested at: 200 nM
Setting: whole 134-nt RNA, ends assumed
With: 150 mM LiCl
Relative to: input library
Reading: higher = stronger binding
All molecules: 7-deaza-guanosine replaces G
All sequences stand within: GGGAGUUCUACAGUCCGACGAUC … UGGAAUUCUCGGGUGUCAAGG
Strand	log2 enrichment
GUCCUGUGCUACACAUCGUAUGUACCGAAUCAAACCCCCCCAAAUUUAAACCCCCAAAAAAGUAUUAUGUUACGCCGUUCGGAUCUGCAC	1.72
AAGUCCUGUGCUACACAUCGUAUGUACCGAAUCGGAAAGGAAAAAGGAAAAAAAGGAAAGUAUUAUGUUACGCCGUUCGGAUCUGCACUU	-0.937
GUGGACAACGCGUACUGGCUGUGGACUUUCCAGGGACGCCUCCUGCAGAAGAACAACAAGGACCGCUUCUGCCAGCUGCUGUGGCGGCCC	-2.32
UCCUCAAGUCCUGUGCUACACAUCGUAUGUACCGAAUCGGGUGGUGGUGGGGAAAGUAUUAUGUUACGCCGUUCGGAUCUGCACUUCCAG	0.0985
ACCAUGCAGGUGGGCAUCUUUGGGAUGUGGGGCAAGGGGGGGAUAGGGAGGGGGGUAACACUUUGGGAACAGGUGGUCCCAGGUCGUUUC	1.04
UUAUCACCAGGACUGCCAUGUUCCCAGGGCUCCAGCCCCUGGAGAGGGAGAGGGCACAUCCUGGGUAUGCCGCCAGUGUGUCUUUGCGAU	-1.07
UCCUGUGCUACACAUCGUAUGUACCGAAUCGGGGCCCCCCGGCCCCCCGGGCCCCCCGGGAAAGUAUUAUGUUACGCCGUUCGGAUCUGC	-0.851
ACCAUGCAGGUGGGCAUCUUUGGGAAGUGGGGCAAGGGGGGGAUAGGGAGGGGGGUAACACUUUUGGAACAGGUGGUCCCAGGUCGUUUC	1.38
CCUGUGCUACACAUCGUAUGUACCGAAUCGGAAAAAAGGGGAAAAAAGGGGAAAAAAGGGGAAAGUAUUAUGUUACGCCGUUCGGAUCUG	0.476
CACAGACAACACGCACCCACACAGACACAGAGGGAAGGGGUUGGGAUGGGGACAGCGUGCACAGCAGGGCGGGGUAGGACCCCAGCCCCU	-0.691
CCAACUCCUAUAAUUCCCUAUCUUUUAGUUUUAGUUGCAGAAACAUUUUGUGGUCAUUAAGCAUUGGGUGGGUAAAUUCAACCACUGUAA	1.16
